Published values from different studies.
± marks the error that the study gave.

COc1ccc(CNc2nc(N3CCC[C@H]3CO)ncc2C(=O)NNC(=O)c2cnc(N3CCC[C@H]3CO)nc2NCc2ccc(OC)c(Cl)c2)cc1Cl  revertant count (Salmonella typhimurium; TA1535; 500 µg/plate, 48 h): 38 ± 4
O=C(O)CCC(NP(=O)(O)OCCC[C@@H](NC(=O)CCC(NC(=O)CCCCCNC(=O)CCCCCNC(=O)c1ccc([18F])cc1)C(=O)O)C(=O)O)C(=O)O (some centres unmarked)  tracer uptake (CWR22Rv1 tumour model; host not given, muscle; intravenous, 1 h, tumour-bearing): 0.15 %ID/g
COc1ccc(CNc2nc(N3CCC[C@H]3CO)ncc2C(=O)NN)cc1Cl  revertant count (Salmonella typhimurium; TA97a; 1000 µg/plate, 48 h): 129 ± 17
C[C@@](O)(C(F)F)[C@H](NC(=O)c1ccc(C#CC#CC2CC2)cc1)C(=O)NO  Vd (dog, plasma; intravenous, 10 mg/kg): 4 L/kg
O=C(O)CCC(NP(=O)(O)OCCC[C@@H](NC(=O)CCC(NC(=O)c1ccc([18F])cc1)C(=O)O)C(=O)O)C(=O)O (some centres unmarked)  tracer uptake (CWR22Rv1 tumour model; host not given, blood; intravenous, 1 h, tumour-bearing): 0.15 %ID/g
COc1cc(C(=O)NCCOCCOCCOCCNC(=O)c2ccc([18F])nc2)ccc1NC(=O)C1NC(CC(C)(C)C)C(C#N)(c2ccc(Cl)cc2F)C1c1cccc(Cl)c1F (centres unmarked)  tracer uptake (HepG2 tumour model; host not given, stomach; 30 min, tumour-bearing): 2.15 %ID/g
CCC(=O)N(C)c1ccc(Cl)c(Cl)c1  revertants (Salmonella typhimurium; Ames test; TA1537; 5.00 mg/plate, without S9 activation): 0 revertants/plate
CN[C@](C)(C[18F])C(=O)O  tracer uptake (SK-OV-3 tumour model; host not given, kidney; 30 min, tumour-bearing): 12 %ID/g
